Assay results gathered from unrelated publications.
Every numbered part comes from another study and shows a few of its results, in no order.
Chain of UniProt P10721 (whole entry, unmodified, looked up): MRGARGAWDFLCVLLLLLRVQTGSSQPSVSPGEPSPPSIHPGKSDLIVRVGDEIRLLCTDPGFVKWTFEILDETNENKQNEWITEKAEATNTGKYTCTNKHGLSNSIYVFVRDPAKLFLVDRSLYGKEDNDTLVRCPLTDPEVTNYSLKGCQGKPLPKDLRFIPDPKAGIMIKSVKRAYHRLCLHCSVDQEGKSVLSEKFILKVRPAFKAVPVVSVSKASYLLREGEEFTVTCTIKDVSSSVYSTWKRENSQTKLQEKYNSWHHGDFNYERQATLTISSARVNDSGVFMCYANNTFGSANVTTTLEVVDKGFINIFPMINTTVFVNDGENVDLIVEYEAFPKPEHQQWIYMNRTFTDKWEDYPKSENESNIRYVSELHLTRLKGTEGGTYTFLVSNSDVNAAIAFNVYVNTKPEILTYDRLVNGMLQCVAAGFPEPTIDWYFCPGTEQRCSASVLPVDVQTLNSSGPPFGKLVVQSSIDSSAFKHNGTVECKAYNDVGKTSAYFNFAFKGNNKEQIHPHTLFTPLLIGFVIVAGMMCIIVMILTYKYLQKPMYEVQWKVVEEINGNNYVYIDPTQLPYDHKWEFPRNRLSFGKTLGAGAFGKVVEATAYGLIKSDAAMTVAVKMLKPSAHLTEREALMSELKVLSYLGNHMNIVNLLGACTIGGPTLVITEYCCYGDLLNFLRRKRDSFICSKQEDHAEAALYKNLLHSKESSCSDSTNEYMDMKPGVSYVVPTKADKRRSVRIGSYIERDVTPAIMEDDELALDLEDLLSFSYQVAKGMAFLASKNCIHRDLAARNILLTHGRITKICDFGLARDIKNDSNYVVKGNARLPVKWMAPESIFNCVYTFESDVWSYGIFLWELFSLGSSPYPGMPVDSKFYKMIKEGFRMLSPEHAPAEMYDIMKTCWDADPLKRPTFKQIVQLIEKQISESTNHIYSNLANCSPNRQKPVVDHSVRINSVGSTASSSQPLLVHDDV
Chain of UniProt Q9H0K1 (whole entry, looked up): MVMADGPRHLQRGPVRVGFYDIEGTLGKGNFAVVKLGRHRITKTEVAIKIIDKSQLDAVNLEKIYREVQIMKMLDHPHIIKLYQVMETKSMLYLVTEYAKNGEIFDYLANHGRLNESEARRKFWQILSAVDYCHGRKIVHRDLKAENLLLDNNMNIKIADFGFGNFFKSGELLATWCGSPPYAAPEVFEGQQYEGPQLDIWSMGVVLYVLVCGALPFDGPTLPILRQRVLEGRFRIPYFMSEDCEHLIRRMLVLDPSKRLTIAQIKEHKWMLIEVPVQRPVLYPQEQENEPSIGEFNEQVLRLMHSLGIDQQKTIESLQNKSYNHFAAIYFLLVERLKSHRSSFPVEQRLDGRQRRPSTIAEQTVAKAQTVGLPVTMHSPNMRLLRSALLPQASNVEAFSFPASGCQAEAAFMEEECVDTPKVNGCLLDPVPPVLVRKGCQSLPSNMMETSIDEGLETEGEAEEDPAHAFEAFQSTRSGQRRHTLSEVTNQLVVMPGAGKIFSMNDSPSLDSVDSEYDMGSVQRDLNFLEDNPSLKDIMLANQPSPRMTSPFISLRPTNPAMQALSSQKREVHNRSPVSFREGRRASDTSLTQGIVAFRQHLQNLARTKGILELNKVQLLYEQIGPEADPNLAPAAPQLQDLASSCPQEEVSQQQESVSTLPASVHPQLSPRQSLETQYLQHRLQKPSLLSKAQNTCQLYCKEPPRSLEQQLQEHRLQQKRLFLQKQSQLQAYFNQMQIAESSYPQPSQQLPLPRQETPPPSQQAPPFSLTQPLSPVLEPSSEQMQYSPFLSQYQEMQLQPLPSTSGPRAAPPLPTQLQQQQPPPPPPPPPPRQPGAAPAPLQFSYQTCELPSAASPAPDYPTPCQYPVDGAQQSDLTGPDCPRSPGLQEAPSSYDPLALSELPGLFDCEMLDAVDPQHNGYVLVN
Chain of UniProt Q16832 (whole entry, looked up): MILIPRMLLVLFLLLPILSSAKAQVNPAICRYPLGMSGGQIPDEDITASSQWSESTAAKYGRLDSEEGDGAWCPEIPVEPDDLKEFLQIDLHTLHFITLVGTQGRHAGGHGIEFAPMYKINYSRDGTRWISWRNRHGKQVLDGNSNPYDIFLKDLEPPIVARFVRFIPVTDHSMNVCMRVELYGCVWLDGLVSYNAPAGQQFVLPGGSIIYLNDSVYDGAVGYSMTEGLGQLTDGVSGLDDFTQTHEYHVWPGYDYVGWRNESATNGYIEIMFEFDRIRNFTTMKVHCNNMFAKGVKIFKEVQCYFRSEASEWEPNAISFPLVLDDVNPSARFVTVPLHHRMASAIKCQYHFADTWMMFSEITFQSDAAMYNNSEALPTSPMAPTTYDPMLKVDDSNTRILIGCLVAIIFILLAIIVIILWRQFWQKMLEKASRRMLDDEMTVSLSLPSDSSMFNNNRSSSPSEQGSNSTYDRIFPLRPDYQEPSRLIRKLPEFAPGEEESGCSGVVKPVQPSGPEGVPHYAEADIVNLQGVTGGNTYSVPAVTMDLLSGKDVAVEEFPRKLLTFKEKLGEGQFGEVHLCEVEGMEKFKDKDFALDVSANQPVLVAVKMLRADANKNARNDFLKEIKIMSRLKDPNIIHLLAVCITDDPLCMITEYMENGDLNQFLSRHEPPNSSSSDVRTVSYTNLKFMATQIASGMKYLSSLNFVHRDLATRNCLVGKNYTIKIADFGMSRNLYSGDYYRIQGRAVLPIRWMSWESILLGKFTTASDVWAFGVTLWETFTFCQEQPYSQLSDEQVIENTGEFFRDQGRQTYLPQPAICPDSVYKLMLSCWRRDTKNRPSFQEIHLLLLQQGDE
Chain of UniProt P17948 (whole entry, looked up): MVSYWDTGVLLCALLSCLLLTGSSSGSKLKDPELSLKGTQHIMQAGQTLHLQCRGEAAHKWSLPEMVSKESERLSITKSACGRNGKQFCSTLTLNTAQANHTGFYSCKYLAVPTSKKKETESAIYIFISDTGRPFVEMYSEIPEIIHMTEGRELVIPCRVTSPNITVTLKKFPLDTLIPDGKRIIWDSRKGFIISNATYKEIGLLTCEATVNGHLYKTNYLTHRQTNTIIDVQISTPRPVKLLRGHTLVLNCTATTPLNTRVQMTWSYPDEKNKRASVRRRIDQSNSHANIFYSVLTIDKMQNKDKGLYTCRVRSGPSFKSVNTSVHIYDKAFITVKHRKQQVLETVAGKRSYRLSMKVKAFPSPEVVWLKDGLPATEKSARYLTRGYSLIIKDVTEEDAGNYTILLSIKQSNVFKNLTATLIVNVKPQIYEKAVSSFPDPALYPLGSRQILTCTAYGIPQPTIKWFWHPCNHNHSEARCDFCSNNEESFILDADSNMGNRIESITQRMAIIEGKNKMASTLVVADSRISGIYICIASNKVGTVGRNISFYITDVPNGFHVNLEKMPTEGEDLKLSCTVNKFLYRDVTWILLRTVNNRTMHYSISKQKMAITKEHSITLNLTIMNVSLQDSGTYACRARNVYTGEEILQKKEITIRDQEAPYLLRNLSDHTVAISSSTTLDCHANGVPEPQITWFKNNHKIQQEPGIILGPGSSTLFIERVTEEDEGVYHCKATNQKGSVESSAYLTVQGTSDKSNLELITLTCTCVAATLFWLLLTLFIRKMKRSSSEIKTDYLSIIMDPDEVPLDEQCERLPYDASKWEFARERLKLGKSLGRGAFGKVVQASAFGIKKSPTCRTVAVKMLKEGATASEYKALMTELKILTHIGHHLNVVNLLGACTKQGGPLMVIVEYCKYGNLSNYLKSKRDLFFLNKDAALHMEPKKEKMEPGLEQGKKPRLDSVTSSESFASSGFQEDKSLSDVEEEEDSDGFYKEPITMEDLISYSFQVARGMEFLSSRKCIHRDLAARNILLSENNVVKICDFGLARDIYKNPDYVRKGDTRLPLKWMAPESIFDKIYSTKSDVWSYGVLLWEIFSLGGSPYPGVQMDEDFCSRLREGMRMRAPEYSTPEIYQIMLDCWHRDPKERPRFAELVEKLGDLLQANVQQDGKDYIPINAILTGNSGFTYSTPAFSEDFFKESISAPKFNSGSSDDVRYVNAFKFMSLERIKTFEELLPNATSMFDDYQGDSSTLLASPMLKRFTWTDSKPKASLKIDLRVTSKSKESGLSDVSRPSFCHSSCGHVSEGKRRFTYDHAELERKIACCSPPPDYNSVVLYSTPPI
Chain of UniProt Q9Y243 (whole entry, looked up): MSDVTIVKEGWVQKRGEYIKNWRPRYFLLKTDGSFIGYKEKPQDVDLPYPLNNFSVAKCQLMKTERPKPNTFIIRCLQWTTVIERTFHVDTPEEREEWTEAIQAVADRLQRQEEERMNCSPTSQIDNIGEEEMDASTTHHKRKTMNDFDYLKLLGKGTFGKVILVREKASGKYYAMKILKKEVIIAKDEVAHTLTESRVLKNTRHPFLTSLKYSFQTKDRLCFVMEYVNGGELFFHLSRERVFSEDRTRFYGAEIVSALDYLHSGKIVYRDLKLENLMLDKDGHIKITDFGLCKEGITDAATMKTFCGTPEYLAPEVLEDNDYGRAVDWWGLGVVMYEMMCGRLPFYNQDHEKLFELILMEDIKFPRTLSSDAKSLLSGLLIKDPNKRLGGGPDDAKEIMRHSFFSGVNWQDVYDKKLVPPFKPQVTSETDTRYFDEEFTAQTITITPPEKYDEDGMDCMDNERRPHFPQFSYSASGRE
Chain of UniProt Q6PHR2 (whole entry, looked up): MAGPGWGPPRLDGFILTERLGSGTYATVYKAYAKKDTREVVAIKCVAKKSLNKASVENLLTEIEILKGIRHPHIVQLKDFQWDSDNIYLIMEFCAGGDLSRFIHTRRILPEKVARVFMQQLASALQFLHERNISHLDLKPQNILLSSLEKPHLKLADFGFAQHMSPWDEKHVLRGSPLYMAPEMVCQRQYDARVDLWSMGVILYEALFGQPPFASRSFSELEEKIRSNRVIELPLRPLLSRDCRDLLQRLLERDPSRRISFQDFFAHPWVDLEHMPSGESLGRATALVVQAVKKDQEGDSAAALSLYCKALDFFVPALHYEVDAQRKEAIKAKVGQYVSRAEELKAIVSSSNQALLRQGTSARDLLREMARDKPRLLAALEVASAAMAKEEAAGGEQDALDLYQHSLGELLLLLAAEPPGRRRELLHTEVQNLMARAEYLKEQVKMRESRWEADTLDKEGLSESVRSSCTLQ

Sample 1
SMILES: C[C@H](c1cccc(C#N)c1)n1cc(Cl)cc(C(N)=O)c1=N
Read-out: cell-free assay
Technique: competition with immobilised ligand
Tested at: 1 µM
The remaining binding was 100% (CDKL2 (Homo sapiens, UniProt Q92772)).
MAP2K5 (Homo sapiens, UniProt Q13163) — remaining binding: 100%.
ULK3 (Homo sapiens, UniProt Q6PHR2) — remaining binding: 64%.
For DDR2 (Homo sapiens, UniProt Q16832): remaining binding read 100%.
TAOK3 (Homo sapiens, UniProt Q9H2K8) — remaining binding: 67%.
For Ribosomal protein S6 kinase alpha-5, N-terminal kinase domain (RPS6KA5, Homo sapiens, UniProt O75582): remaining binding read 92%.
For FGFR1 (Homo sapiens, UniProt P11362): remaining binding read 95%.
It gave 100% for remaining binding (CAMK2B (Homo sapiens, UniProt Q13554)).
KIT (Homo sapiens, UniProt P10721, V559D/V654A) — remaining binding: 96%.
It gave 78% for remaining binding (CDK7 (Homo sapiens, UniProt P50613)).
The remaining binding was 100% (AKT3 (Homo sapiens, UniProt Q9Y243)).
It gave 92% for remaining binding (Tyrosine-protein kinase ABL1, non-phosphorylated (ABL1, Homo sapiens, UniProt P00519, T315I)).
EGFR (Homo sapiens, UniProt P00533, del746-750) — remaining binding: 75%.
It gave 80% for remaining binding (EGFR (Homo sapiens, UniProt P00533, T790M)).
EGFR (Homo sapiens, UniProt P00533, A750P/del747-749) — remaining binding: 78%.
STK26 (Homo sapiens, UniProt Q9P289) — remaining binding: 88%.

Sample 2
Cell line: mouse MPNST tumor cells
Technique: high-content nuclear imaging
Item: cell number
Tested at: 10 µM
Time: 12 h
Notes: mean of 2 replicates
Relative to: plate mean
Reading: higher = more cells
The nuclei count of `COC1CCC(C(=O)c2ccc3nc4c(cc3c2)CCCO4)CC1` (stereo not drawn) is reported as 0.338 z-score.
`CC(C)NCC(O)c1ccc(O)c(O)c1` (single isomer, unassigned; (+)) gave a nuclei count of 0.235 z-score.
For `CC(=O)OCC(=O)[C@@]1(O)CC[C@H]2[C@@H]3CCC4=CC(=O)CC[C@]4(C)[C@@]3(F)[C@@H](O)C[C@@]21C`, the nuclei count was 3.8 z-score.
`COc1ccc(-c2nc(-c3ccc(-c4cccc(Cl)c4)o3)[nH]c2-c2ccc(OC)cc2)cc1` has a nuclei count of 6.26 z-score.
For `CCC(CC)Nc1nc(C)c(-c2ccc(OC(F)(F)F)cc2OC)nc1OC`, the nuclei count was 0.0851 z-score.

Sample 3
Structure (SMILES): O=C1NC(=O)c2c1c1c3ccccc3[nH]c1c1[nH]c3cc(Br)ccc3c21
Read-out: enzyme activity
Action: inhibitor
Tested at: 0.5 µM
Relative to: control
For Cyclin-dependent kinase 2, with cyclin E (CDK2, Homo sapiens, UniProt P24941): remaining activity read 74.9%.
The remaining activity was 46.3% (RPS6KA3 (Homo sapiens, UniProt P51812)).
For FLT1 (Homo sapiens, UniProt P17948): remaining activity read 56.5%.
CLK2 (Homo sapiens, UniProt P49760) — remaining activity: 84.7%.
It gave 82.2% for remaining activity (CSNK1E (Homo sapiens, UniProt P49674)).
It gave 97.7% for remaining activity (PAK6 (Homo sapiens, UniProt Q9NQU5)).
The remaining activity was 80.4% (SIK2 (Homo sapiens, UniProt Q9H0K1)).
CAMK1 (Homo sapiens, UniProt Q14012) — remaining activity: 99%.
It gave 15% for remaining activity (IGF1R (Homo sapiens, UniProt P08069)).

Sample 4
Host: human
Medium: microsomes or S9
Tested at: 2 µM
Time: 0.5 h
The remaining compound of `COc1ccc(-n2nc([S+](C)[O-])c(-n3ccnc3)c2-c2ccc(Cl)c(Cl)c2)cc1` (stereo not drawn) is reported as 28.5%.
For `Cc1cc(C(=O)NC2CCCc3c2[nH]c2ccccc32)c2c(C)noc2n1` (stereo not drawn), the remaining compound was 77.7%.
With `CC(C)Oc1ccc(CNC(=O)NC2CCCCNC2=O)cn1` (stereo not drawn) the remaining compound was 66%.
For `CC(C)(C)c1ccc(C(O)CCC(=O)N[C@@H]2C=C[C@H](CO)C2)cc1` (stereo partly drawn), the remaining compound was 14.3%.
With `Cc1cc(C(=O)Nc2cnn(Cc3ccc(Cl)cc3Cl)c2)c2c(C)nn(C)c2n1` the remaining compound was 23.5%.
With `CS(=O)(=O)N1C2CCC1CC(NC(=O)Cn1cc(-c3ccc(F)cc3)cn1)C2` (stereo not drawn) the remaining compound was 51.8%.
The remaining compound of `CN(C(=O)CN1C(=O)COc2cc(Cl)c(Cl)cc21)C(CN1CCCC1)c1ccc(-c2ccnc(Cl)c2)cc1` (stereo not drawn) is reported as 90.7%.
With `CC1CCc2cc(F)ccc2N1S(=O)(=O)c1cc(Cl)ccc1Cl` (stereo not drawn) the remaining compound was 92.6%.
The remaining compound of `CCC1=NOC(c2nc3sc(CC)cc3c(=O)[nH]2)C1` (stereo not drawn) is reported as 48.8%.

A few entries again (sample 1):
It gave 80% for remaining binding (EGFR (Homo sapiens, UniProt P00533, T790M)).
The remaining binding was 100% (AKT3 (Homo sapiens, UniProt Q9Y243)).
EGFR (Homo sapiens, UniProt P00533, A750P/del747-749) — remaining binding: 78%.
MAP2K5 (Homo sapiens, UniProt Q13163) — remaining binding: 100%.
TAOK3 (Homo sapiens, UniProt Q9H2K8) — remaining binding: 67%.
The remaining binding was 100% (CDKL2 (Homo sapiens, UniProt Q92772)).
